Assay results gathered from unrelated publications.
Lines come from different studies, so protocols differ. Values joined by “and” are separate records of one study, mostly repeats; a detail may differ. pIC50: −log10 of the molar value.

COc1ccccc1-c1ccncc1C(=O)Nc1nnc(OCc2ccc(Cl)cc2)s1
colony survival (PEO1 BRCA2-mutant; 0.5 µM, added: olaparib 0.125 µM): 10.8%

CNS(=O)(=O)Nc1nccc(Cc2c(C)c3ccc(Oc4ncccc4F)cc3oc2=O)c1F
pIC50 (SNU-C1; cell viability; 7 days): 7.55

Cc1ncsc1-c1ccc(C(C)NC(=O)C2CC(O)CN2C(=O)C(NC(=O)CCCCCCCCCCN2CCCC(Nc3ncc(Cl)c(Nc4ccccc4S(=O)(=O)C(C)C)n3)C2)C(C)(C)C)cc1 (centres unmarked)
log2 fold change (22Rv1; RNA-seq, measured: OBSCN mRNA; concentration not given; reference: DMSO): -1

COc1cc2nc(N(CCCN(C)C)C(=O)c3ccc(S(=O)(=O)N4CCc5ccccc54)cc3)sc2cc1OC.Cl
translation activity (Trypanosoma cruzi; reporter mRNA translation, inhibitor, measured: Renilla luciferase mRNA; cell-free extract; concentration not given; reference: positive over negative control): 79.1% and 117%

CO[C@@H]1[C@@H](OC(N)=O)[C@@H](O)[C@H](Oc2ccc3c(O)c(NC(=O)c4ccc(O)c(CC=C(C)C)c4)c(=O)oc3c2C)OC1(C)C
colony count (HCT-116 parental; 250 µM, replicate 2): 1.05

CCOc1cncc(-c2ccc(NC(=O)C3(c4ccnc(NS(=O)(=O)C5CC5)n4)CCOCC3)nc2)n1
pIC50 (RCH-ACV; cell proliferation, CellTiter-Glo; 72 h, lymphoid haematological cancer): 7.62

Fc1ccccc1N1CCN(C2CCCN(Cc3cccc(C(F)(F)F)c3)C2)CC1 (centres unmarked)
translation activity (Trypanosoma cruzi; reporter mRNA translation, inhibitor, measured: Renilla luciferase mRNA; cell-free extract; concentration not given, test 2; reference: positive over negative control): 91.1% and 136%

CC(C)c1ccc(N(C)c2ccc3c(c2)OCC[C@H]3CNc2cnccc2C(=O)O)cc1
pIC50 (Kasumi 1; cell growth or viability, ATP luminescence; 7 days): ≤ 5.00

CN1CCCNC(=O)c2cccc(c2)C(=O)NCCCN(C)CCCNc2cccc3c2C(=O)c2cccc(c2C3=O)NCCC1
log2 fold change (SAS; RNA-Seq, measured: CAPN10 mRNA; 1 µM, 6 h; reference: untreated cells): -1.36

Cn1ncc2cc(-c3cncc(Cl)c3N3CCC4(CCNC4=O)CC3)ccc21
log2 fold change (LS174T; gene expression, microarray, measured: DDIT4 mRNA; concentration not given, 24 h; reference: untreated cells): 2.94

CCN(CC)CC(=O)Nc1cccc(-n2cc(-c3ccc4ccc(-c5cn(-c6cccc(NC(=O)CN(CC)CC)c6)nn5)cc4c3)nn2)c1
fold regulation (RCC4; PCR angiogenesis array, measured: GAPDH; 5 x IC50, 2 h, normoxia; reference: untreated): -1.01 fold

For quick reference, copied from above:
COc1cc2nc(N(CCCN(C)C)C(=O)c3ccc(S(=O)(=O)N4CCc5ccccc54)cc3)sc2cc1OC.Cl
translation activity (Trypanosoma cruzi; reporter mRNA translation, inhibitor, measured: Renilla luciferase mRNA; cell-free extract; concentration not given; reference: positive over negative control): 79.1% and 117%
